{"data": "Experimental data of several laboratories", "CD209": "CD209 antigen (CD209, Homo sapiens, UniProt Q9NNX6)", "Melanocortin receptor 5": "Melanocortin receptor 5 (Mus musculus, UniProt P41149)", "CFTR del508-508": "Cystic fibrosis transmembrane conductance regulator (CFTR, Homo sapiens, UniProt P13569, del508-508)", "CFTR": "Cystic fibrosis transmembrane conductance regulator (CFTR, Homo sapiens, UniProt P13569)", "MBLAC2": "MBLAC2 (Homo sapiens, UniProt Q68D91)", "B1": "R-spondin 1 (human, recombinant); chain SRGIKGKRQRRISAEGSQACAKGCELCSEVNGCLKCSPKLFILLERNDIRQVGVCLPSCPPGYFDARNPDMNKCIKCKIEHCEACFSHNFCTKCKEGLYLHKGRCYPACPEGSSAANGTMECSSPAQCEMSEWSPWGPCSKKQQLCGFRRGSEERTRRVLHAPVGDHAACSDTKETRRCTVRRVPCPEGQKRRKGGQGRRENANRNLARKESKEAGAGSRRRKGQQQQQQQGTVGPLTSAGPA", "note": "Lines come from different studies, so protocols differ. ± marks the error that the study gave."}
{"Substance": "O=C(ON1C(=O)CCC1=O)c1cc(C(F)(F)F)cc(C(F)(F)F)c1", "target": "CD209", "test": "binding, grating-coupled interferometry", "test system": "mannose-PEG3 chip", "setting": "overnight, Tris quench", "EC50 [nM]": 30000}
{"Substance": "CSCC[C@H](NC(=O)[C@H](CO)NC(=O)[C@H](Cc1ccc(O)cc1)NC(=O)[C@H](CO)NC(C)=O)C(=O)N[C@@H](C)C(=O)N[C@@H](Cc1c[nH]cn1)C(=O)N[C@@H](Cc1ccccc1)C(=O)N[C@@H](CCCNC(=N)N)C(=O)N[C@@H](Cc1c[nH]c2ccccc12)C(=O)NCC(=O)N[C@@H](CCCCN)C(=O)N1CCC[C@H]1C(=O)N[C@H](C(N)=O)C(C)C", "target": "Melanocortin receptor 5", "EC50 [nM]": "65 ± 85"}
{"Substance": "CCCCC[C@@](C)(O)[C@H]1CC[C@H]2[C@@H]3CC=C4C[C@@H](O)CC[C@]4(C)[C@H]3CC[C@@]21C", "target": "Protein smoothened (Smo, Mus musculus, UniProt P56726)", "test": "Hh pathway activation, agonist, item: Gli1 mRNA", "test system": "Smo-null cells rescued with Smo", "scale": "relative to: saturating SAG", "EC50 [nM]": 26300}
{"Substance": "CCCC[C@H](NC(=O)[C@H](CO)NC(=O)[C@H](Cc1ccc(O)cc1)NC(=O)[C@H](CO)NC(C)=O)C(=O)N[C@@H](CCC(=O)O)C(=O)N[C@@H](Cc1c[nH]cn1)C(=O)N[C@H](Cc1ccccc1)C(=O)N[C@@H](CCCNC(=N)N)C(=O)N[C@@H](Cc1c[nH]c2ccccc12)C(=O)NCC(=O)N[C@@H](CCCCN)C(=O)N1CCC[C@H]1C(=O)N[C@@H](C)C(N)=O", "target": "Melanocortin receptor 5", "EC50 [nM]": "0.24 ± 0.04"}
{"Substance": "Cc1ccccc1C(=O)NN=Cc1ccccc1", "target": "Estrogen-related receptor gamma (ESRRG, Homo sapiens, UniProt P62508)", "test": "reporter gene, agonist, luciferase reporter", "test system": "HEK293 transfected", "EC50 [nM]": 1600}
{"Substance": "CCCC[C@H](NC(=O)[C@H](CO)NC(=O)[C@H](Cc1ccc(O)cc1)NC(=O)[C@H](CO)NC(C)=O)C(=O)N[C@@H](CCC(=O)O)C(=O)N[C@@H](Cc1c[nH]cn1)C(=O)N[C@H](Cc1ccccc1)C(=O)N[C@@H](C)C(=O)N[C@@H](Cc1c[nH]c2ccccc12)C(=O)NCC(=O)N[C@@H](CCCCN)C(=O)N1CCC[C@H]1C(=O)N[C@H](C(N)=O)C(C)C", "target": "Melanocortin receptor 5", "EC50 [nM]": "0.32 ± 0.09"}
{"Substance": "COc1ccc(Cl)cc1Cn1nc(-c2sc(NC(=O)C(C)(C)C)nc2C)cc1C(=O)N1CCOCC1", "target": "CFTR del508-508", "test": "iodide influx, corrector, YFP quenching", "test system": "FRT expressing ΔF508-CFTR and YFP-H148Q/I152L", "setting": "with: forskolin 20 µM + genistein 50 µM", "EC50 [nM]": 1000}
{"Substance": "Cn1c(=O)c(-c2ccccc2N)nc2ccccc21", "target": "CFTR", "test": "channel activation, activator, YFP halide sensor", "test system": "FRT cells", "setting": "approximate, with: 125 nM forskolin", "EC50 [nM]": "> 25000"}
{"Substance": "CSCC[C@H](NC(=O)[C@H](CCC(=O)O)NC(=O)[C@@H]1CCCN1C(=O)[C@@H](NC(=O)[C@@H]1CCCN1)[C@@H](C)O)C(=O)N[C@@H](CCCNC(=N)N)C(=O)N[C@@H](CCC(=O)O)C(=O)N[C@@H](CCCCN)C(=O)N[C@@H](CC(C)C)C(=O)N[C@H]1CSSC[C@@H]2NC(=O)[C@@H](NC(=O)[C@H](Cc3ccc(O)cc3)NC(=O)[C@H](CCCNC(=N)N)NC(=O)[C@H](C)NC(=O)[C@@H]3CCCN3C(=O)[C@H](CC(N)=O)NC(=O)[C@@H](NC(=O)[C@H](C)NC(=O)[C@H](C)NC(=O)[C@H](C)N)[C@@H](C)O)CSSC[C@H](NC(=O)CNC(=O)[C@H](CO)NC(=O)[C@H](CC(C)C)NC2=O)C(=O)N[C@@H]([C@@H](C)O)C(=O)N[C@@H](CCC(N)=O)C(=O)N[C@@H](CCC(N)=O)C(=O)N[C@@H](CC(=O)O)C(=O)N[C@@H](CC(C)C)C(=O)N[C@@H](CC(C)C)C(=O)N[C@@H]([C@@H](C)O)C(=O)N[C@@H](CC(C)C)C(=O)N[C@H](C(=O)N2CCC[C@H]2C(=O)N[C@@H](Cc2ccc(O)cc2)C(=O)O)CSSC[C@@H](C(=O)NCC(=O)NCC(=O)N2CCC[C@H]2C(=O)N[C@@H](CCCNC(=N)N)C(=O)N[C@@H](Cc2c[nH]c3ccccc23)C(=O)N[C@@H](CO)C(=O)N[C@H](C(=O)N[C@@H](CCC(=O)O)C(=O)N[C@@H](C)C(=O)O)[C@@H](C)O)NC(=O)[C@H](C(C)C)NC(=O)[C@H](CCCNC(=N)N)NC(=O)[C@H](C(C)C)NC(=O)[C@H](CC(C)C)NC(=O)[C@H](C)NC(=O)[C@H](CCCNC(=N)N)NC(=O)[C@H](C(C)C)NC(=O)[C@H](Cc2ccccc2)NC(=O)[C@H](Cc2c[nH]cn2)NC(=O)[C@H](Cc2c[nH]cn2)NC(=O)CNC1=O", "target": "Relaxin receptor 2 (RXFP2, Homo sapiens, UniProt Q8WXD0)", "test": "cAMP production, agonist, CAMYEL BRET", "test system": "HEK293 transfected", "setting": "5 min, 37 °C", "EC50 [nM]": 2.24}
{"Substance": "O=C(Nc1ccccc1C(=O)Nc1ccccc1C(=O)NCc1ccco1)c1ccco1", "target": "Relaxin receptor 1 (RXFP1, Homo sapiens, UniProt Q9HBX9)", "test": "cAMP, agonist, TR-FRET", "EC50 [nM]": 3800}
{"Substance": "O=C(COc1ccc(Cl)cc1)N[C@H]1CC[C@H](NC(=O)COc2ccc(Cl)cc2)CC1", "target": "Translation initiation factor eIF2B (Cricetulus griseus, UniProt A0A8C2M9U0+A0A8C2MKR7)", "test": "guanine nucleotide exchange, activator, Bodipy-FL-GDP release", "test system": "Cricetulus griseus cell lysate", "setting": "with: phosphorylated eIF2 substrate", "EC50 [nM]": 27}
{"Substance": "Cn1c(=O)c(-c2cc([N+](=O)[O-])ccc2N)nc2ccccc21", "target": "CFTR", "test": "channel activation, activator, YFP halide sensor", "test system": "FRT cells", "setting": "approximate, with: 125 nM forskolin", "EC50 [nM]": "~10000"}
{"Substance": "O=C(CN1CCCC1C(=O)Nc1nccs1)Nc1cccc(F)c1 (centres unmarked)", "target": "Kappa-type opioid receptor (OPRK1, Homo sapiens, UniProt P41145)", "test": "G protein activation, agonist, BRET", "EC50 [nM]": 7200}
{"Substance": "Cc1[nH]c2ccccc2c1CCNCc1ccc(/C=C/C(=O)NO)cc1", "target": "MBLAC2", "test": "palmitoyl-CoA hydrolysis, inhibitor", "setting": "with: [3H]palmitoyl-CoA", "EC50 [nM]": "< 10"}
{"Substance": "CSCC[C@H](NC(=O)[C@H](CO)NC(=O)[C@H](Cc1ccc(O)cc1)NC(=O)[C@H](C)NC(C)=O)C(=O)N[C@@H](CCC(=O)O)C(=O)N[C@@H](Cc1c[nH]cn1)C(=O)N[C@@H](Cc1ccccc1)C(=O)N[C@@H](CCCNC(=N)N)C(=O)N[C@@H](Cc1c[nH]c2ccccc12)C(=O)NCC(=O)N[C@@H](CCCCN)C(=O)N1CCC[C@H]1C(=O)N[C@H](C(N)=O)C(C)C", "target": "Melanocortin receptor 5", "EC50 [nM]": "46 ± 39"}
{"Substance": "CCCCc1nc2cc(/C=C/C(=O)NO)ccc2n1CCN(CC)CC", "target": "MBLAC2", "test": "palmitoyl-CoA hydrolysis, inhibitor", "setting": "with: [3H]palmitoyl-CoA", "EC50 [nM]": "< 6.31"}
{"Substance": "CCCC[C@H](NC(=O)[C@H](CO)NC(=O)[C@H](Cc1ccc(O)cc1)NC(=O)[C@H](CO)NC(C)=O)C(=O)N[C@@H](C)C(=O)N[C@@H](Cc1c[nH]cn1)C(=O)N[C@H](Cc1ccccc1)C(=O)N[C@@H](CCCNC(=N)N)C(=O)N[C@@H](Cc1c[nH]c2ccccc12)C(=O)NCC(=O)N[C@@H](CCCCN)C(=O)N1CCC[C@H]1C(=O)N[C@H](C(N)=O)C(C)C", "target": "Melanocortin receptor 5", "EC50 [nM]": "0.25 ± 0.012"}
{"Substance": "COc1c(Nc2cc(C(F)(F)F)cc(C(F)(F)F)c2)c(=O)c1=O", "target": "CD209", "test": "binding, grating-coupled interferometry", "test system": "mannose-PEG3 chip", "setting": "overnight, Tris quench", "EC50 [nM]": 100000}
{"Substance": "CC(=O)N[C@@H](CO)C(=O)N[C@@H](Cc1ccc(O)cc1)C(=O)N[C@@H](CO)C(=O)N[C@@H](C)C(=O)N[C@@H](CCC(=O)O)C(=O)N[C@@H](Cc1c[nH]cn1)C(=O)N[C@@H](Cc1ccccc1)C(=O)N[C@@H](CCCNC(=N)N)C(=O)N[C@@H](Cc1c[nH]c2ccccc12)C(=O)NCC(=O)N[C@@H](CCCCN)C(=O)N1CCC[C@H]1C(=O)N[C@H](C(N)=O)C(C)C", "target": "Melanocortin receptor 5", "EC50 [nM]": "60 ± 55"}
{"Substance": "B1 (R-spondin 1)", "target": "human LGR5", "test": "binding, ELISA", "setting": "2 h", "EC50 [nM]": "~0.04"}
{"Substance": "Nc1nc2ccc3cc4ccccc4cc3c2s1", "target": "Small conductance calcium-activated potassium channel protein 3 (Kcnn3, Mus musculus, UniProt P58391)", "test": "channel current, activator, patch clamp", "test system": "mouse carotid endothelial cells, KCa3.1 knock-out", "setting": "0.25 µM free Ca2+", "EC50 [nM]": 1500}
{"Substance": "O=C(COc1ccc(C2=[N+]3C(=Cc4ccc(-c5cccs5)n4[B-]3(F)F)C=C2)cc1)NCCCCCNC(=O)[C@H]1O[C@H](OP(=O)(O)OP(=O)(O)OCC2OC(n3ccc(=O)[nH]c3=O)C(O)C2O)[C@H](O)[C@@H](O)[C@@H]1O (some centres unmarked)", "target": "P2Y purinoceptor 14 (P2RY14, Homo sapiens, UniProt Q15391)", "test": "cAMP inhibition, agonist", "test system": "CHO expressing human P2Y14", "setting": "15 min, 37 °C, with: forskolin", "EC50 [nM]": 0.96}
{"Substance": "C=CCn1nc(-c2sc(NC(=O)C(C)(C)C)nc2C)cc1C(=O)NCc1ccccc1", "target": "CFTR del508-508", "test": "iodide influx, corrector, YFP quenching", "test system": "FRT expressing ΔF508-CFTR and YFP-H148Q/I152L", "setting": "with: forskolin 20 µM + genistein 50 µM", "EC50 [nM]": 3000}
